Measured values gathered from unrelated publications.
Each numbered part is a random draw from the data of one study; scales do not carry over between parts.
UniProt Q9Y2I7, sequence (whole entry, looked up): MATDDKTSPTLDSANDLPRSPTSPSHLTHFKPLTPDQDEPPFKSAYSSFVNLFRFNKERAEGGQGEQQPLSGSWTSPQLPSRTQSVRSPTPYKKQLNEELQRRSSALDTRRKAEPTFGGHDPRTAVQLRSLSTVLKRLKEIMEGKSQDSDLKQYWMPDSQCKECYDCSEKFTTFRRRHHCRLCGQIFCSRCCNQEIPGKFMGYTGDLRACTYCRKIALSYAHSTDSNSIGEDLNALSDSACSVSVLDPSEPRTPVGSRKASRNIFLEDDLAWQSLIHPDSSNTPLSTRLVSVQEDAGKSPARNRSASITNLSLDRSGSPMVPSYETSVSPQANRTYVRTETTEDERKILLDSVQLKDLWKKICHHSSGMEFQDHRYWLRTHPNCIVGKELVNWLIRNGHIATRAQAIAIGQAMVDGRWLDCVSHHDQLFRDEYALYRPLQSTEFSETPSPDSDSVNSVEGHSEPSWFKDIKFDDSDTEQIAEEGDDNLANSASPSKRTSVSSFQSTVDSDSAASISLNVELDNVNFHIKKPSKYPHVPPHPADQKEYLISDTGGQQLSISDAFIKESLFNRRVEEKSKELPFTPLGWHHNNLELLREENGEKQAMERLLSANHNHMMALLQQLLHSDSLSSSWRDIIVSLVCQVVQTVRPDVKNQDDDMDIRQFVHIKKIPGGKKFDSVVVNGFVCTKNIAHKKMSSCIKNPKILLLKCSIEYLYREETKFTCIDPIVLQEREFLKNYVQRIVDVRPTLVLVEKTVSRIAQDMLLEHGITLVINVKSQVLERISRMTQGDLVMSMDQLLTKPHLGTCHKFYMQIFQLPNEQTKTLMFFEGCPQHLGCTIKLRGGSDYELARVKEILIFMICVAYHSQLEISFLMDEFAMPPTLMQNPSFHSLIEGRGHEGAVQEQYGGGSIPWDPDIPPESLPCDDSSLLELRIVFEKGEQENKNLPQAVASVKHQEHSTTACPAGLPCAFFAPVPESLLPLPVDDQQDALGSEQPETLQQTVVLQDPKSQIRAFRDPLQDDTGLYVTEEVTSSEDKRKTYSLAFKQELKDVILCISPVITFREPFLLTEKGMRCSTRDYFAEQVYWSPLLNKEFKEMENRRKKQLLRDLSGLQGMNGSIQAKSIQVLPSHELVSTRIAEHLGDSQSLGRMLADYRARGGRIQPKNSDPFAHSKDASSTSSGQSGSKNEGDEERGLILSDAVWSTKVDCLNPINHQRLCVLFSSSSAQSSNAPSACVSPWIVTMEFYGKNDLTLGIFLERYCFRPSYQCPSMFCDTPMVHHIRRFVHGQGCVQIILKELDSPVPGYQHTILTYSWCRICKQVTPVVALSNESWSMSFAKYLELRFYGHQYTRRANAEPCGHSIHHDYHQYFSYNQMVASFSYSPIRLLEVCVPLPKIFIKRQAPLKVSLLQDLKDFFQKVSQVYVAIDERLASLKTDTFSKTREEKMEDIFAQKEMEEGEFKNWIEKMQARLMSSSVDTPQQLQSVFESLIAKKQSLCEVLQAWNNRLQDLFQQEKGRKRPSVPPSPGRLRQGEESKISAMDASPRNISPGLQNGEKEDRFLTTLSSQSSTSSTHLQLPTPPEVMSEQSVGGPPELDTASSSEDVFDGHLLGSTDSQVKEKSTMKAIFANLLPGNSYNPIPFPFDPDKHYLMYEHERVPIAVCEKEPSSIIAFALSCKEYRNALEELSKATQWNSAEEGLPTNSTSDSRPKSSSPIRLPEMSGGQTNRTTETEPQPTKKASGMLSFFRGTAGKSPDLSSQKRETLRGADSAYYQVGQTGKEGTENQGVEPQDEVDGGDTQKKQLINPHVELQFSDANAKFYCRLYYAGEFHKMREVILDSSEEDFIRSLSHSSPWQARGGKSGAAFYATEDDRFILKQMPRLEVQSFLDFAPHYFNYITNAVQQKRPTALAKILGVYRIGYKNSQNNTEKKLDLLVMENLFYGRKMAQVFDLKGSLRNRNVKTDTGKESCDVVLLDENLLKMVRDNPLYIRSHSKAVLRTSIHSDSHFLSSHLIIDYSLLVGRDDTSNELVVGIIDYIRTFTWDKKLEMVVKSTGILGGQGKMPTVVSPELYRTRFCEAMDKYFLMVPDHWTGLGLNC
UniProt P07949, sequence (whole entry, unmodified, looked up): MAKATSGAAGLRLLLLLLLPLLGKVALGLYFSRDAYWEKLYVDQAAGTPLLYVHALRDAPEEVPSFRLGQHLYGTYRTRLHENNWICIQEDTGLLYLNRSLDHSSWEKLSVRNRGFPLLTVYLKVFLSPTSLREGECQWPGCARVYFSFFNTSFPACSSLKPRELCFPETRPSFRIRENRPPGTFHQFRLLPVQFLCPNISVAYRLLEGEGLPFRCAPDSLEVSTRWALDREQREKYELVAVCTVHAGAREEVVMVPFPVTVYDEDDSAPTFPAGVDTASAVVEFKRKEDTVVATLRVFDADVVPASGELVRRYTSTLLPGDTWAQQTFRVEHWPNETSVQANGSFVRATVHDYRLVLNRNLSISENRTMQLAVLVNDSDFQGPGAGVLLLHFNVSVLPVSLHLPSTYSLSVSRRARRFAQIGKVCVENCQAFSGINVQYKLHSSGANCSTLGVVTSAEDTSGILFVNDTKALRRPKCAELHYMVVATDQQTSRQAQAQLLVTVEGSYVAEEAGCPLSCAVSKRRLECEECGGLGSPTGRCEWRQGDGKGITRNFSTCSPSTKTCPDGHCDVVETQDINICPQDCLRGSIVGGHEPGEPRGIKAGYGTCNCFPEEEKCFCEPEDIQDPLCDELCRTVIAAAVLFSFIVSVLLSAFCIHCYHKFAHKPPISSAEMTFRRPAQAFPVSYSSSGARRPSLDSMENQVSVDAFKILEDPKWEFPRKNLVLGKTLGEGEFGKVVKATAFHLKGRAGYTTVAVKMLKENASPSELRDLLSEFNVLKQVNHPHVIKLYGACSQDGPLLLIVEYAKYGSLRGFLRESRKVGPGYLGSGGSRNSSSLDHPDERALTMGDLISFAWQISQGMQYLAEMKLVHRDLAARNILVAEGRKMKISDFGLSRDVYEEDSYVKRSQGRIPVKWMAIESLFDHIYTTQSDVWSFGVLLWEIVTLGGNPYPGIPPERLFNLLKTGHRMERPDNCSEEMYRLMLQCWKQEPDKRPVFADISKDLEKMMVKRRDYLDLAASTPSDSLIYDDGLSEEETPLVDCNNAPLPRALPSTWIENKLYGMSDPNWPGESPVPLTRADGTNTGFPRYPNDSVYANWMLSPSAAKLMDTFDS
UniProt Q8IY84, sequence (whole entry, looked up): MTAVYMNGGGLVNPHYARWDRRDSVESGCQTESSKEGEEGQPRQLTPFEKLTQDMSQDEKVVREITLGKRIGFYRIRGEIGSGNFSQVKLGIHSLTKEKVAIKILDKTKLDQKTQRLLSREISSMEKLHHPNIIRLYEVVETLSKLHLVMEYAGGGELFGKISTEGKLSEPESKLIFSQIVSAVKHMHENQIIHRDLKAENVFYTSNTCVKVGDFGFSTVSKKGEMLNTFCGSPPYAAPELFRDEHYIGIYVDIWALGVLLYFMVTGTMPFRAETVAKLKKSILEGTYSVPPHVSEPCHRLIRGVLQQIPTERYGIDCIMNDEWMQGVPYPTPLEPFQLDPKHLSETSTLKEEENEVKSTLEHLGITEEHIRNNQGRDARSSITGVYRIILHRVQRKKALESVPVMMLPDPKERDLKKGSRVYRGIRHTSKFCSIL
UniProt P10721, sequence (whole entry, unmodified, looked up): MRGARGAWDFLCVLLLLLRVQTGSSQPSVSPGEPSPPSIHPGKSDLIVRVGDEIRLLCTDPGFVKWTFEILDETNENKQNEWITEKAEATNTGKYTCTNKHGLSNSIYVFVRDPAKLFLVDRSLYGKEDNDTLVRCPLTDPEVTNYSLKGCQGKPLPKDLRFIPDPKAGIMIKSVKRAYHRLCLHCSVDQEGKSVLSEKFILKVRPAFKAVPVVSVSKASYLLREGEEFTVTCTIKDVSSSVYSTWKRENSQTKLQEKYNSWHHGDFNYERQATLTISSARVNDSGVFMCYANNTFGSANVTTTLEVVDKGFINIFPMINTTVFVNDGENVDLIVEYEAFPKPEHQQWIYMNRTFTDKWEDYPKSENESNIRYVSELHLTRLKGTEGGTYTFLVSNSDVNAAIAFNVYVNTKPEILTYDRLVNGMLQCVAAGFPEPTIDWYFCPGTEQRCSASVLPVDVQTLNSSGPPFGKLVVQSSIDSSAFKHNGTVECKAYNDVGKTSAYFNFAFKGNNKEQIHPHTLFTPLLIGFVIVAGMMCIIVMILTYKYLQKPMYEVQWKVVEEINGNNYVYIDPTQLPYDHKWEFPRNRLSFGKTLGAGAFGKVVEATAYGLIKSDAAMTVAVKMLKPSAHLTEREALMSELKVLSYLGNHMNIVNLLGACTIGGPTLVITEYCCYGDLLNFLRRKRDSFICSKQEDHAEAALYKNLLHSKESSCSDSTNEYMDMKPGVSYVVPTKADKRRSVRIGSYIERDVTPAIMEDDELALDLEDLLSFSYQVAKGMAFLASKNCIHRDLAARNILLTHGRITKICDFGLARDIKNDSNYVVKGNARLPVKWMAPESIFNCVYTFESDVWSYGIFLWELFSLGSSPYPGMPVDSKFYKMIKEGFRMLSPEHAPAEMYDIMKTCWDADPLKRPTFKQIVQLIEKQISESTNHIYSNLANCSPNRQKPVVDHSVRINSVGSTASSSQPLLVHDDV
UniProt Q9HBY8, sequence (whole entry, looked up): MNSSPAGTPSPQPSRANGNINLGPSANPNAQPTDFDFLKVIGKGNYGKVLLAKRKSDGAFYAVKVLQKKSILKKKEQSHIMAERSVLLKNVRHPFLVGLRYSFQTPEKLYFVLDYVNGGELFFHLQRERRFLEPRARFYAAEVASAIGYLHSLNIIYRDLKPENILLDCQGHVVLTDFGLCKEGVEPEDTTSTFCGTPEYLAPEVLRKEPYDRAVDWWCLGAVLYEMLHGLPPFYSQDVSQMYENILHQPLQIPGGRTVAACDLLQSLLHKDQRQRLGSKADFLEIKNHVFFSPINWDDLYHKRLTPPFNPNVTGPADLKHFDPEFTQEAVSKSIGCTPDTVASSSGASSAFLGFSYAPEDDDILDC

Set 1
Organism: Sarcocystis neurona
Effect on: parasite activity
Concentration: 10 µM
Time: 96 h
`CN1CCN(C2=Nc3cc(F)ccc3Cc3ccccc32)CC1`: activity class “inactive”.
`N[C@@H]1CON=C1O` — result for activity class: “inactive”.
`Clc1ccc(COC(Cn2ccnc2)c2ccc(Cl)cc2Cl)c(Cl)c1` (stereo not drawn): activity class “inactive”.
`Cc1cccc(C)c1NC(=O)C1CCCCN1C` (stereo not drawn): activity class “inactive”.
`CCCC1O[C@@H]2C[C@H]3[C@@H]4CCC5=CC(=O)C=C[C@]5(C)[C@H]4[C@@H](O)C[C@]3(C)[C@]2(C(=O)CO)O1` (stereo partly drawn): activity class “inactive”.
For `CN(C)CCOC(C)(c1ccccc1)c1ccccn1` (stereo not drawn), activity class read “inactive”.
Under activity class, `CS(=O)(=O)c1ccc(C2=C(c3ccccc3)C(=O)OC2)cc1` is recorded as “inactive”.
Under activity class, `CC1(C)O[C@@H]2C[C@H]3[C@@H]4C[C@H](F)C5=CC(=O)C=C[C@]5(C)[C@H]4[C@@H](O)C[C@]3(C)[C@]2(C(=O)CO)O1` is recorded as “inactive”.

Set 2
SMILES: O=C(O)[C@@H]1[C@@H](Cn2nnc3ccccc3c2=O)CC[C@H]1C(=O)c1ccc(OCCC2CCOCC2)cc1
Effect on: cell-free assay
Technique: competition with immobilised ligand
Concentration: 1 µM
For MAPK11 (Homo sapiens, UniProt Q15759): remaining binding read 99%.
The remaining binding was 84% (NUAK1 (Homo sapiens, UniProt O60285)).
It gave 92% for remaining binding (ABL2 (Homo sapiens, UniProt P42684)).
RET (Homo sapiens, UniProt P07949, V804M) — remaining binding: 100%.
SGK2 (Homo sapiens, UniProt Q9HBY8) — remaining binding: 79%.
For MAP3K4 (Homo sapiens, UniProt Q9Y6R4): remaining binding read 91%.
It gave 100% for remaining binding (NUAK2 (Homo sapiens, UniProt Q9H093)).
The remaining binding was 88% (CDK17 (Homo sapiens, UniProt Q00537)).
It gave 87% for remaining binding (PIKFYVE (Homo sapiens, UniProt Q9Y2I7)).
The remaining binding was 100% (KIT (Homo sapiens, UniProt P10721, V559D)).
It gave 88% for remaining binding (SLK (Homo sapiens, UniProt Q9H2G2)).
It gave 73% for remaining binding (NIM1K (Homo sapiens, UniProt Q8IY84)).
The remaining binding was 100% (PIK3CA (Homo sapiens, UniProt P42336, M1043I)).

Set 3
Species: mouse
Medium: microsomes or S9
Concentration: 2 µM
Time: 0.5 h
The remaining compound of `CC(=O)c1c(NN2CCOCC2)oc(C)cc1=O` is reported as 64.3%.
`COc1cc(OC)cc(OC/C(=C\c2ccc(C(=O)O)cc2)CNc2cnc3ccccc3c2)c1` gave a remaining compound of 26.8%.
`COCc1cc(C)nc2sc(-c3nc(N)nc(N(C)C)n3)c(N)c12` has a remaining compound of 0.172%.
For `O=C(NCc1cc2n(n1)CCNC2)c1cccc(OCc2cccc(F)c2)c1`, the remaining compound was 12.8%.
The remaining compound of `O=c1ccc(-c2ccc(S(=O)(=O)NCc3cccc(Br)c3)s2)n[nH]1` is reported as 56.5%.
For `CC1(C)C[C@H](O)[C@@H](n2/c(=N/C#N)[nH]c3ccccc32)c2cccc([N+](=O)[O-])c2O1`, the remaining compound was greater than 99.9%.
`CCCC[S+]([O-])c1[nH]c2c(C(C)C)cccc2c(=O)c1C(C)=O` (stereo not drawn) has a remaining compound of 0.498%.

Set 4
SMILES: CC(C)n1cnc(-c2ccc(F)cc2)c1-c1ncc(C(=O)Nc2ccc(N3CCN(C)CC3)cc2)[nH]1
Technique: phase 2a trial
Species: idiopathic pulmonary fibrosis patients
It gave 0% for “adverse event incidence” (refers to: ventricular extrasystoles; dose not given, grade 2, all arms pooled).
refers to: liver injury; dose not given, grade 2, all arms pooled — “adverse event incidence”: 0%.
For refers to: chronic gastritis; 60 mg once daily, grade 5: “adverse event incidence” read 0%.
The “adverse event incidence” was 0% (refers to: liver injury; 60 mg once daily, grade 4).
For refers to: weight decreased; 30 mg once daily, grade 4: “adverse event incidence” read 0%.
For refers to: weight decreased; 60 mg once daily, grade 3: “adverse event incidence” read 0%.
refers to: hydroxybutyrate dehydrogenase increased; 30 mg once daily, grade 2 — “adverse event incidence”: 0%.
It gave 0% for “adverse event incidence” (refers to: general and administration site disorders; 30 mg once daily, grade 2).
